Results collected from several papers.
Each numbered part is a random draw from the data of one study; scales do not carry over between parts.

Set 1 — method: protein-binding microarray; molecule type: double-stranded DNA, one strand shown; medium: in vitro; tested at: 940 nM top; notes: 60-bp whole probe; with: salmon DNA 0.4 mg/ml; baseline: random background probes; direction: higher = stronger binding
Target: Interferon regulatory factor 5, full length, phosphomimetic (IRF5, Homo sapiens, UniProt Q13568-2, residues 1-514, S451D/S453D/S456D/S462D)
Sequence	fitted relative affinity [z-score]
GCCTAGCACTTAGATTTGGGGACTGGATTAGTGCTAGTCTTGATTCGCTTGACGCTGCTG	0.164
GCCTAGCACGAGGATATCGGGACTGGAGACGTGCTAGTCTTGATTCGCTTGACGCTGCTG	-0.503
GCCTAGCACCTTGCTTTTTAGATCGTCCCGTGCTAGGTCTTGATTCGCTTGACGCTGCTG	0.611
GCCTAGCACAGAAACTGTGAGGAGGGGAAGTGCTAGGTCTTGATTCGCTTGACGCTGCTG	2.68

Set 2 — method: RNA Bind-n-Seq; molecule type: RNA; medium: in vitro; tested at: 365 nM; baseline: no-protein control; direction: higher = stronger binding
Target: RNA binding protein fox-1 homolog 2, RRM domain, GST-SBP tag (RBFOX2, Homo sapiens, UniProt O43251-10, residues 100-194)
Notes: natural RNA segment, single round, ends assumed
Constant ends, left off below: GGGAGUUCUACAGUCCGACGAUC … UGGAAUUCUCGGGUGCCAA
Residues (chain): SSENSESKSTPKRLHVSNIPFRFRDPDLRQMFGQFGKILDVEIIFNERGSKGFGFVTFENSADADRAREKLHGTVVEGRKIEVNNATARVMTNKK
Sequence	RBNS enrichment (R)
UCUGACAUUACUUCCAGCAAAUAGGGAACAGUUUUGCCCUGGAACAGAGUUACAGAUACACAAUCAAGAGUGUUCUUGCUGAUGCUCGGGGUCUGAAGACUGUCUUCCUA	0.261
GCAGAGGUUUUGAUGUAUCCCUGCCGUCUGCAAGAGUCCAGAGGCUGGACUGACAGUAGGAAGUAGAAAUAAGCUAUGUGUAGUCUUGGAAAGUUCCCACCUCACAGGGA	1.27
CUCGGUCCUGAGUUCAAUUCCCAGCAACCACAUGGUGGCUCAUAGCCAUCUGUAAUGGGAUUUGGUGCCCUCUUCUGGUGUGUCUGAAAACAGCUACAGCAUACCCAUAU	0.195
AGCCAGAGAGGGGGGUCCAAGUGCGGGAUGUGGGUGGCUCUGUGGUUCAGUGGCUCUGUGGUAGUUCCUAGCACUGCAGACUUCAUGACUCCCCACUUAAGUCCAAGUCA	0.599
GAUGAUUUGUGCAUUUUAAAAAAUGAGUUUCUUUCCCUCUUAGCACCCCUCCUUCCUGUCUGGUUAGGAAGCCCAAUGCACCCUCUGAGGUCAUCACUUCUGUUCUAUGU	0.453

Set 3 — method: universal PBM; molecule type: double-stranded DNA, one strand shown; medium: in vitro; tested at: 600 nM; direction: higher = stronger binding
Target: Sal-like protein 4, full length isoform A (SALL4, Homo sapiens, UniProt Q9UJQ4, residues 1-1053)
Chain of UniProt Q9UJQ4 (whole entry, looked up): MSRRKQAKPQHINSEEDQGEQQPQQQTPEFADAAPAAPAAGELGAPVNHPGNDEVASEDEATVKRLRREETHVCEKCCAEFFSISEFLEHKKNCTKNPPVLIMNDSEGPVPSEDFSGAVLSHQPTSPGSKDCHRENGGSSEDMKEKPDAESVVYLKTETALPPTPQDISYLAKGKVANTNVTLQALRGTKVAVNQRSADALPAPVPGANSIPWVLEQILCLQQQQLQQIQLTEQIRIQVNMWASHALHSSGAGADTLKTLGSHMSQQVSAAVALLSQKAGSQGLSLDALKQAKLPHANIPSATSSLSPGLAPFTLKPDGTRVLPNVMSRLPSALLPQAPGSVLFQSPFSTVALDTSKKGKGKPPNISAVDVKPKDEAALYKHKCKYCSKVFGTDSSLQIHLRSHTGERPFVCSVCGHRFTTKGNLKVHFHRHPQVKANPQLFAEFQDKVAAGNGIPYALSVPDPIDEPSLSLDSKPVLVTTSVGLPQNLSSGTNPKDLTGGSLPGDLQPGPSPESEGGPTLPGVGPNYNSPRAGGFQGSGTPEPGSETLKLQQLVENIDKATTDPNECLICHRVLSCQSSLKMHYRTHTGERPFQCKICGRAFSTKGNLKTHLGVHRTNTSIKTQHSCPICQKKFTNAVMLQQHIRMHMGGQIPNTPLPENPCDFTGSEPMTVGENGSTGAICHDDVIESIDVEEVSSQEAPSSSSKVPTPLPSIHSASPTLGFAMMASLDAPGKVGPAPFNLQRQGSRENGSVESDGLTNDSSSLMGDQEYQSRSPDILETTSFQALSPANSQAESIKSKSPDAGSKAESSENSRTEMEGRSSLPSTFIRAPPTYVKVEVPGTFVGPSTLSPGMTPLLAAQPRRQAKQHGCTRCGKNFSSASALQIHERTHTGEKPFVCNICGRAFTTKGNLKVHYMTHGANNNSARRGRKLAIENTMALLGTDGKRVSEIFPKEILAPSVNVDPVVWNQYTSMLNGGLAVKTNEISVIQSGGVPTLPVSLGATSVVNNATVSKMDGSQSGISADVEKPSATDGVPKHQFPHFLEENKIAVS
Notes: 8-mer, flanks averaged, mean of replicates
Sequence	E-score
AGCACGTA	0.00685
ACCGGCGT	-0.329
AAACAAGA	0.192

Single results of other studies
Substance	target	assay	system	setting	scale	quantity	result
PhoQ, residues 284 288 289 292 302 303 AEGLLW	PhoP, residues 12 14 15 18 19 AQALL (Escherichia coli, UniProt P23836)	Sort-seq, measured: YFP reporter	E. coli	PhoQ-PhoP variant library, with: 10 µM Mg2+	baseline: high Mg2+ state, higher = stronger signaling	fold induction	5.33

Excerpt of the above (set 2):
Sequence	RBNS enrichment (R)
AGCCAGAGAGGGGGGUCCAAGUGCGGGAUGUGGGUGGCUCUGUGGUUCAGUGGCUCUGUGGUAGUUCCUAGCACUGCAGACUUCAUGACUCCCCACUUAAGUCCAAGUCA	0.599
GAUGAUUUGUGCAUUUUAAAAAAUGAGUUUCUUUCCCUCUUAGCACCCCUCCUUCCUGUCUGGUUAGGAAGCCCAAUGCACCCUCUGAGGUCAUCACUUCUGUUCUAUGU	0.453
